# Experimental data from different studies.
# Numbered parts are unrelated; each lists some results of a single study.

# Set 1
# Target: Prothrombin, mature alpha-thrombin (F2, Homo sapiens, UniProt P00734)
# Technique: aptamer microarray, sandwich
# Molecule type: DNA with 2'F-ANA
# Matrix: in vitro
# Tested at: 200 nM
# Setting: whole 15-mer aptamer, many near background
# Added: Cy3 exosite-II aptamer, 400 nM
# Reading: higher = stronger binding
# Sequence: GGTTGGTGTGGTTGG
Modification,mean fluorescence intensity
2'F-ANA at 1 4 5 8 10 11 14,50.4 a.u.
2'F-ANA at 4 7 9 11 12 13,328 a.u.
2'F-ANA at 1 3 5 6 7 13,60.9 a.u.
2'F-ANA at 3 4 9 11 13 15,523 a.u.
2'F-ANA at 2 4 5 8 11 14,52 a.u.

# Set 2
# Target: Probable WRKY transcription factor 33, C-terminal DNA-binding domain (WRKY33, Arabidopsis thaliana, UniProt Q8S8P5, residues 346-449)
# Technique: DNA-protein interaction ELISA
# Molecule type: double-stranded DNA, one strand shown
# Matrix: in vitro, bacterial lysate
# Tested at: not given
# Setting: whole dsDNA probe, crude lysate protein
# Relative to: highest signal in screen
# Reading: higher = stronger binding
# Residues (chain): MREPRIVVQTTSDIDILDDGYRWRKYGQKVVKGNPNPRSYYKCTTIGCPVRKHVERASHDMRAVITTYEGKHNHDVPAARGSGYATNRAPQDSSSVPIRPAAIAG
Sequence,relative absorbance
AAAAAACACTTAACTGAGTGGGATTGAAAA,36.5 % of maximum
AAAAAAGTCTAGTCGTAAAAA,71.7 % of maximum
AAAAAAGGTTTAGCCCATGCCTGTGCAAAA,28.7 % of maximum
AAAAAACTGCTTGCCCCTGTCTCCATAAAA,42.2 % of maximum
AAAAAATCGCACTGCCGCCGATGGCTAAAA,49.3 % of maximum

# Set 3
# Target: POU, POU domain (Salpingoeca helianthica)
# Technique: Spec-seq
# Molecule type: double-stranded DNA, one strand shown
# Matrix: in vitro
# Tested at: not given
# Setting: whole probe, mean of replicates
# Relative to: not given
# Reading: lower = stronger binding
# Shared flanks, not repeated: GAGTCGTCTCGTCAGCAC … CCGTAGAGCACTCAGGTC
# Target sequence (chain): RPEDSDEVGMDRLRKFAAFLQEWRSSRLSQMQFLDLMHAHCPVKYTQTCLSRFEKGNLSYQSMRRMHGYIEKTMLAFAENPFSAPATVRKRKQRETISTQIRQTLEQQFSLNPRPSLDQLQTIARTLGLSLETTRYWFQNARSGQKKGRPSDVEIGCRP
Sequence,relative binding energy [ln ratio]
ATGCTCAA,1.3
GCAATAAT,0.0185
ATAGGCAT,1.18
CAAGTAAT,0.497
ATGCTACC,1.3
ATTCACAT,1.07

# Single results of other studies
Substance,target,assay,system,conditions,scale,measurement,value
"PhoQ, residues 284 288 289 292 302 303 QWQEDG","PhoP, residues 12 14 15 18 19 STWGI (Escherichia coli, UniProt P23836)","Sort-seq, measured: YFP reporter",E. coli,"PhoQ-PhoP variant library, added: 10 µM Mg2+","relative to: high Mg2+ state, higher = stronger signaling",fold induction,1.17
